Measured values gathered from unrelated publications.
Lines come from different studies, so protocols differ. ± marks the error that the study gave. Ends that are not written are not given here.
B1: Rad9 protein; chain MSGQLVQWKSSPDRVTQSAIKEALHSPLADGDMNEMNVPVDPLENKVNSTNIIEGSPKANPNPVKFMNTSEIFQKSLGLLDESPRHDDELNIEVGDNDRPNANILHNERTPDLDRIANFFKSNRTPGKENLLTKYQSSDLEDTPLMLRKKMTFQTPTDPLEQKTFKKLKSDTGFCYYGEQNDGEENASLEVTEADATFVQMAERSADNYDCALEGIVTPKRYKDELSKSGGMQDERVQKTQIMISAESPNSISSYDKNKITGNGRTTRNVNKVFNNNEDNIGAIEEKNPVKKKSENYSSDDLRERNNQIIQSNESEEINELEKNLNVSGRENDVNNLDIDINSAVSGTPSRNNAEEEMYSSESVNNREPSKKWIFRYSKDKTENNSNRSTQIVNNPRTQEMPLDSISIDTQPLSKSFNTETNNELETQIIVSSLSQGISAQKGPVFHSTGQTEEIKTQIINSPEQNALNATFETPVTLSRINFEPILEVPETSSPSKNTMSKPSNSSPIPKEKDTFNIHEREVETNNVFSNDIQNSSNAATRDDIIIAGSSDFNEQKEITDRIYLQLSGKQISDSGSDETERMSPNELDTKKESTIMSEVELTQELPEVEEQQDLQTSPKKLVVEEETLMEIKKSKGNSLQLHDDNKECNSDKQDGTESLDVALIEHESKGQSSELQKNLMQLFPSESQEIIQNRRTIKRRQKDTIEIGEEEENRSTKTSPTKHLKRNSDLDAASIKREPSCSITIQTGETGSGKDSKEQSYVFPEGIRTADNSFLSKDDIIFGNAVWCQYTWNYKFYPGILLEVDTNQDGCWIYFETGRSLTKDEDIYYLDIRIGDAVTFDGNEYVVVGLECRSHDLNIIRCIRGYDTVHLKKKNASGLLGKRTLIKALSSISLDLSEWAKRAKIILEDNEKNKGDAYRYLRHPIRGRKSMTNVLSPKKHTDDEKDINTHTEVYNNEIESSSEKKEIVKKDSRDALAEHAGAPSLLFSSGEIRTGNVFDKCIFVLTSLFENREELRQTIESQGGTVIESGFSTLFNFTHPLAKSLVNKGNTDNIRELALKLAWKPHSLFADCRFACLITKRHLRSLKYLETLALGWPTLHWKFISACIEKKRIVPHLIYQYLLPSGESFRLSLDSPSKGGIIKSNNIFSFYTQFLRGSNLRDQICGVKKMLNDYIVIVWGRSELDSFVKFAFACLSAGRMLTIDLPNIDVDDTEPLLNALDSLVPRIGSELSNRKLKFLIYANENNGKSQMKLLERLRSQISLKFKKFNYIFHTESKEWLIQTIINEDTGFHDDITDNDIYNTISEVR
B2: HPV E7 protein; chain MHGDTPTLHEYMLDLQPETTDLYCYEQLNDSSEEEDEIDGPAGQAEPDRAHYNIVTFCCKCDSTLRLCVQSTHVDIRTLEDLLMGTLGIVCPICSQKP

PDLNGDVVAIDYKHY
responding donors (human CD4 T cells; AIM; peptide): 15%

RSV F/foldon soluble ectodomain S155C/S190F/V207L/S290C/D486H/E487Q/F488W/D489H (respiratory syncytial virus)
subunits per oligomer (itself; SEC): 3

B1 (Rad9 protein)
Kd (Transcriptional regulatory protein EmbR (embR, Mycobacterium tuberculosis, UniProt P9WGJ9)): 58 ± 25 nM

ACE2/pIgR VHH6 Fc fusion ACE2 , Fc fusion (Homo sapiens)
Kd (spike RBD RBD (SARS-CoV-2, UniProt P0DTC2); BLI): 101 nM

MFTPLVPFWITIAYI
responding donors (human CD4 T cells; AIM; peptide): 8%

GRKKRRQRRRPQEDGGSFAYGAMKALAG (Tat peptide W2A/Y10A (HIV))
IC50 (CIB1 (Homo sapiens, UniProt Q99828); competition with peptide, competitor, TR-FRET; peptide): > 10000 nM

BKRF4 fragment (Epstein-Barr virus)
Kd (H2A/H2B dimer (Homo sapiens); ITC; 25 °C, NaCl 0.5 M): 1100 nM

Tat fragment (HIV-1)
Vmax decrease (SLC6A3 Y470F (Homo sapiens, UniProt Q01959); dopamine uptake; PC12; 20 min, added: Tat 250 nM; baseline: untreated control, higher = stronger decrease): 47%

MnTx-1 mature (Pterinochilus murinus, UniProt C0HMD2)
IC50 (KCNA6 (Homo sapiens, UniProt P17658); K+ current inhibition, inhibitor, patch-clamp; whole-cell): 4.4 nM

B2 (HPV E7 protein)
maximal activation (Retinoblastoma-associated protein, phosphorylated; with E2F (Homo sapiens, UniProt P06400, del245-267/del582-642); activator, fluorescence polarization; added: phosphorylated Rb 20 nM; baseline: unphosphorylated Rb over phosphorylated Rb): ~100%

Nef monomer, full length (HIV-1, UniProt P03407)
Kd (BTK SH3-SH2 dimer (Mus musculus); SPR): 7640 nM

QPLRKLCILHRNPGRCYQKIPAFYYNQKKKQCEGFTWSGCGGNSNRFKTIEECRRTCIRK (dendrotoxin I; ends and bridges not checked; cysteine pairing not given here; sequence looked up)
coupling free energy (Kcnma1 (Rattus norvegicus, UniProt Q62976); blocker, planar bilayer single channel; added: BP): 1.3 kcal/mol

nef fragment L112D (HIV-1) (sequence not shown)
molecule per partner (HCK SH3 domain (Homo sapiens); SEC-MALS): 1

LMP1 D150A (Epstein-Barr virus)
NFκB reporter activity (itself; luciferase reporter; HEp2; baseline: LMP-1 expressing cells, higher = more activity): 15%

clpS (Mycolicibacterium smegmatis)
Kd (clpC1 (Mycobacterium tuberculosis, UniProt P9WPC9); MST; apparent): 100000 ± 160000 nM

Spike receptor binding domain (SARS-CoV-2)
Kd (ACE2 recombinant ectodomain 18-740 (Homo sapiens, UniProt Q9BYF1); SPR): 77.1 nM

Excerpt of the above:
MFTPLVPFWITIAYI
responding donors (human CD4 T cells; AIM; peptide): 8%

MnTx-1 mature (Pterinochilus murinus, UniProt C0HMD2)
IC50 (KCNA6 (Homo sapiens, UniProt P17658); K+ current inhibition, inhibitor, patch-clamp; whole-cell): 4.4 nM
